Results pooled from the literature.
Lines come from different studies, so protocols differ. Values joined by “and” are separate records of one study, mostly repeats; a detail may differ. Numbers after ± are the reported error.
Chain of UniProt Q13547 (whole entry, looked up): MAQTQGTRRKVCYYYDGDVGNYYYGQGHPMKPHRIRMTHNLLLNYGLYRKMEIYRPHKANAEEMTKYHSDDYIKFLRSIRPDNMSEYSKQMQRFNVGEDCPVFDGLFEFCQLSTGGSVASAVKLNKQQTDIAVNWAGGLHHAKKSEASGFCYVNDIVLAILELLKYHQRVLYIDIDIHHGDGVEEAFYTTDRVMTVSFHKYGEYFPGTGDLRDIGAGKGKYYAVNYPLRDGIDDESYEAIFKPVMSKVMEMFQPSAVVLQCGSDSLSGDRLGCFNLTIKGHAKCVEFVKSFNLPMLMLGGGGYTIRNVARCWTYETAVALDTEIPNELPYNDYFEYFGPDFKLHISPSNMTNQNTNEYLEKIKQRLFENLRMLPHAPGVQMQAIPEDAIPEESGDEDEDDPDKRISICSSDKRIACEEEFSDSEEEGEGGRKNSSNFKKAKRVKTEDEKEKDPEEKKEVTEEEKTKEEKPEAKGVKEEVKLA

Structure (SMILES) | target or system | assay | system | setting | how to read | measurement | result
CC(C)C[C@H](CN)CC(=O)O |  | visual analogue scale | healthy male subjects, capsaicin responders, capsaicin-treated skin | 150 mg | relative to: placebo | VAS pain difference | -13.2%
Fc1ccc(C(OCCCc2c[nH]cn2)c2ccc(F)cc2)cc1 | Plasmodium falciparum |  | 7G8 |  |  | IC50 | 2000 nM
C[C@H]1CN(c2n[nH]c3nc(N[C@H]4CC[C@H](NS(=O)(=O)CCC(F)(F)F)CC4)ncc23)CCO1 | HDAC1 (Homo sapiens, UniProt Q13547) | biochemical |  |  |  | IC50 | ≥ 20000 nM
CN[C@@H](C)Cc1ccccc1 |  | refers to: body temperature | TAAR1 knock-out mice | i.p., 3 mg/kg, added: MDMA 25 mg/kg | relative to: time point -5 | time to significant hyperthermia | 30 min
COc1ccc2[nH]cc(CCN)c2c1 |  | binding, MIDAS equilibrium dialysis LC-MS | A2AR-BRIL thermostabilized | concentration not given | relative to: no-protein control | log2 fold change | 2.38
CNC(C)Cc1ccc2c(c1)OCO2 (stereo not drawn) |  | refers to: body temperature | TAAR1 knock-out mice | i.p., 25 mg/kg, added: methamphetamine 3 mg/kg | relative to: time point -5 | time to significant hyperthermia | 15 min
OC(CN1CCC(Cc2ccc(F)cc2)CC1)c1ccc(Cl)cc1 (stereo not drawn) | Plasmodium falciparum |  | Dd2 |  |  | IC50 | 1580 nM
C#CCN(C)[C@H](C)Cc1ccccc1 |  | footprint test | MPTP-induced Parkinson's disease mouse model | 10 mg/kg, trial 3 |  | corridor crossing time | 5.59 s and 6.78 s and 5.74 s and 7 s and 4.09 s and 7.38 s and 5.12 s and 4.39 s
COc1ccc2c3c1O[C@H]1C(=O)CC[C@@]4(O)[C@@H](C2)N(C)CC[C@]314 |  |  | mouse, carrageenan-induced heat allodynia | ip, 1 mg/kg, 10 min before test, 3 h after 1% carrageenan intraplantar |  | paw withdrawal threshold | 48 ± 1.1 °C
COC(=O)[C@H]1[C@@H](OC(=O)c2ccccc2)C[C@@H]2CC[C@H]1N2C |  |  | mouse, nucleus accumbens | i.p., 20 mg/kg, single injection |  | dopamine signal | increased
C#CCN(C)[C@H](C)Cc1ccccc1 |  | passive avoidance retention | APP/PS1 mice | oral, 10 mg/kg, 672 h, 4 weeks treatment |  | step-through latency | 209 ± 57.8 s
CNC1(c2ccccc2Cl)CCCCC1=O (racemic) |  | forced swim test | BALB/cJ mice | intraperitoneal, 10 mg/kg single, 24 h | relative to: vehicle | immobility duration | decreased

Excerpt of the above:
Structure (SMILES) | target or system | assay | system | setting | how to read | measurement | result
Fc1ccc(C(OCCCc2c[nH]cn2)c2ccc(F)cc2)cc1 | Plasmodium falciparum |  | 7G8 |  |  | IC50 | 2000 nM
C[C@H]1CN(c2n[nH]c3nc(N[C@H]4CC[C@H](NS(=O)(=O)CCC(F)(F)F)CC4)ncc23)CCO1 | HDAC1 (Homo sapiens, UniProt Q13547) | biochemical |  |  |  | IC50 | ≥ 20000 nM
